# Assay results pooled from the literature.
# Every numbered part comes from another study and shows a few of its results, in no order. Values joined by “and” are separate records of one study, mostly repeats; a detail may differ.
# Chain of UniProt P62344 (whole entry, looked up): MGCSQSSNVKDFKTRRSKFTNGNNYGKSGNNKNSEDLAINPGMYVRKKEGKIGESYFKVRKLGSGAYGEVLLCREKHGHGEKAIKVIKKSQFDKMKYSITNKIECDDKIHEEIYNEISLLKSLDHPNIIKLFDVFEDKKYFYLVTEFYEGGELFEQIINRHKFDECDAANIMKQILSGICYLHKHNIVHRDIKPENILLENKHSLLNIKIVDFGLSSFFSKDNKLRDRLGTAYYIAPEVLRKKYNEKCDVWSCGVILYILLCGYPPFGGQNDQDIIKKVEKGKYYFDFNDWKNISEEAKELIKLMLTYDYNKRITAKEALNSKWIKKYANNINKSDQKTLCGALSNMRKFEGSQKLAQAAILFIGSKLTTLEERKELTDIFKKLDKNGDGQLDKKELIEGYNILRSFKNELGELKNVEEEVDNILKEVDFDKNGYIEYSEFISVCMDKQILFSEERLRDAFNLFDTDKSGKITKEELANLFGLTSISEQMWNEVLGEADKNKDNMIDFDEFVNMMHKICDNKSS
# Chain of UniProt P61075 (whole entry, looked up): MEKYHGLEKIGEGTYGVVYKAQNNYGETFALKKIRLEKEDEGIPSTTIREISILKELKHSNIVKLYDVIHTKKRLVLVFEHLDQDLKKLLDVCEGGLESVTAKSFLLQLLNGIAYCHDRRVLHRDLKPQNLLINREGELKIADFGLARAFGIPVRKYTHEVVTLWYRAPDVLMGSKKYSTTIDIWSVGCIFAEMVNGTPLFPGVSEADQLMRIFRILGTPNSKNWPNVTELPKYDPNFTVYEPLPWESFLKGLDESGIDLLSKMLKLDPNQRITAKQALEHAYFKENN

# Set 1 — cell line: A-375; tested at: 100 µM; time: 18 h
Structure (SMILES),viability [%]
CCOP(=S)(OCC)Oc1cc(C)nc(C(C)C)n1,67.9
NCC1(CC(=O)O)CCCCC1,85.7
CCN1C[C@]2(OC(=O)c3ccccc3NC(C)=O)CC[C@H](OC)[C@@]34[C@@H]2C[C@@H]([C@@H]13)[C@@]1(O)C[C@H](OC)[C@H]2C[C@@H]4[C@]1(O)[C@H]2OC,83.8
CC(C)C[C@H](CN)CC(=O)O,102
CN1C(=O)COc2c(C(=O)NC3CN4CCC3CC4)cc(Cl)cc21 (stereo not drawn),109
Nc1ccncc1,90.7

# Set 2 — cell line: HEK-293T-ACE2-TMPRSS2; technique: cell count; tested at: 10 µM
Structure (SMILES),viability [%]
CNC(=O)NC(=O)Cn1ncc(Cl)c(Cl)c1=O,70
Cc1cccc(NC(=O)CS(=O)(=O)c2nc(-c3ccccc3)cn2-c2ccc(Cl)cc2)c1C,114
COc1ccc(Cl)cc1NC(=O)c1cnc(N2CCN(c3ncccn3)CC2)c2ccccc12,77
CC(C)(O)C#Cc1ccc(-c2nccn2Cc2ccc(F)cc2)cc1,66
COCCCN1CCC(NC(=O)c2cc(Cl)c(N)c3c2OCC3)CC1,85
Nc1ccc(OC2=C(Cl)C(=O)c3ccccc3C2=O)cc1,88
N#Cc1c(Cl)c(Cl)c(Cl)c(Cl)c1C#N,73
O[C@H]1[C@H]2c3cc4c(cc3CN3CCC(=C[C@@H]1O)[C@H]23)OCO4,126
O=C(NCCc1ccncc1)C(F)(F)F,77
CC(C)N(Cc1nccn1C)C(=O)C1CCCCO1 (stereo not drawn),67
CN(c1ccc([N+](=O)[O-])cc1S(=O)(=O)N1CCOCC1)C1CCCCC1,90
Cc1ccc(C(=O)N2CCC3(CCCN(Cc4ccc(F)cc4)C3)C2)cn1 (stereo not drawn),114
CCc1nc(-c2ccc(C(=O)NC3CCCCCC3)cc2)cs1,89
Cc1nc2c(c(=O)n1C)CCN(Cc1ccc(Sc3nncn3C)o1)CC2,66
O=C(CN1CCN(C(=O)c2cccs2)CC1)Nc1ccc2c(c1)CCC2,88
C=CCN1CC(C(=O)NCc2ccc(S(=O)(=O)N(C)C)cc2)CC1=O (stereo not drawn),65
O=C(NC1CCN(Cc2ccccc2)CC1)c1cc2c(=O)n(Cc3ccccc3)ccc2s1,215
Cc1oc2c(c1C(=O)N1CCCC1)C(=O)c1ccccc1C2=O,76
Cc1cc(N2CCCC(CO)C2)nc(C)n1 (stereo not drawn),65
CCc1ccccc1-c1ccc(NC(C)=O)c(OC)c1,81
Cc1noc(C)c1C(=O)N1C[C@@H](CO)[C@H](c2ccncc2)C1,112
COc1ccccc1C1CCCN1C(=O)CCCn1nnnc1CN1CCOCC1 (stereo not drawn),99
O=C1/C(=C\c2csnn2)CN(C2CCCCC2)C/C1=C\c1csnn1,65
CN1CCN(C(=O)c2ccc3oc(Cc4ccccc4)nc3c2)CC1c1ccccc1 (stereo not drawn),107
COc1ccc(CCNC(=O)Cn2ncc(Br)c(Br)c2=O)cc1,66

# Set 3 — organism: Vesicular stomatitis virus; effect on: pseudovirus infection; tested at: concentration not given; setting: VSV-G control pseudotype; relative to: vehicle
Compound,GFP-positive cells
CNC(=O)c1ccc(N2C(=S)N(c3ccc(C#N)c(C(F)(F)F)c3)C(=O)C2(C)C)cc1F,141%
CC(CN(C)C)CN1c2ccccc2Sc2ccccc21.CC(CN(C)C)CN1c2ccccc2Sc2ccccc21.O=C(O)C(O)C(O)C(=O)O (stereo not drawn),104%
CCCCCOc1ccc(-c2cc(-c3ccc(C(=O)N[C@H]4C[C@@H](O)[C@@H](O)NC(=O)[C@@H]5[C@@H](O)[C@@H](C)CN5C(=O)[C@H]([C@H](O)CC(N)=O)NC(=O)[C@H]([C@H](O)[C@@H](O)c5ccc(O)c(OS(=O)(=O)[O-])c5)NC(=O)[C@@H]5C[C@@H](O)CN5C(=O)[C@H]([C@@H](C)O)NC4=O)cc3)no2)cc1.[Na+],88.9%
CN(C)C/C=C/C(=O)Nc1cc2c(Nc3ccc(F)c(Cl)c3)ncnc2cc1O[C@H]1CCOC1.O=C(O)/C=C\C(=O)O.O=C(O)/C=C\C(=O)O,106%
Cl.O=C1[C@@H]2[C@H]3CC[C@H](C3)[C@@H]2C(=O)N1C[C@@H]1CCCC[C@H]1CN1CCN(c2nsc3ccccc23)CC1,109%
Cc1ccc(C(=O)Nc2ccc(CN3CCN(C)CC3)c(C(F)(F)F)c2)cc1C#Cc1cnc2cccnn12,76.3%
Cc1ccc([C@@H]2O[C@H](CO)[C@@H](O)[C@H](O)[C@H]2O)cc1Cc1ccc(-c2ccc(F)cc2)s1,117%
COc1cc2c(cc1OC)CC(=O)N(CCCN(C)C[C@H]1Cc3cc(OC)c(OC)cc31)CC2.Cl,97.5%
CNC(=O)c1cc(Oc2ccc(NC(=O)Nc3ccc(Cl)c(C(F)(F)F)c3)c(F)c2)ccn1,24.4%
O=C(/C=C/c1cccc(S(=O)(=O)Nc2ccccc2)c1)NO,89.6%
COc1cc2nccc(Oc3ccc(NC(=O)C4(C(=O)Nc5ccc(F)cc5)CC4)cc3)c2cc1OC,81.8%
Cc1nc2c([nH]1)-c1ccccc1N(C(=O)c1ccc(NC(=O)c3ccccc3-c3ccccc3)cc1)CC2.Cl,105%
C[C@@H](O)[C@@H]1NC(=O)[C@H](CCCCN)NC(=O)[C@@H](Cc2c[nH]c3ccccc23)NC(=O)[C@H](Cc2ccccc2)NC(=O)[C@@H](NC(=O)[C@H](N)Cc2ccccc2)CSSC[C@@H](C(=O)N[C@H](CO)[C@@H](C)O)NC1=O,106%
COCCc1ccc(OCC(O)CNC(C)C)cc1.COCCc1ccc(OCC(O)CNC(C)C)cc1.O=C(O)CCC(=O)O (stereo not drawn),96%
C=CC(=O)N1CCC[C@@H](n2nc(-c3ccc(Oc4ccccc4)cc3)c3c(N)ncnc32)C1,116%
CCCCCCCCc1ccc(CCC(N)(CO)CO)cc1.Cl,83.7%
CCC(CC)[C@H](NC(C)=O)[C@@H]1[C@H](O)[C@@H](C(=O)O)C[C@H]1NC(=N)N.O.O.O,95.7%

# Further values, each from its own experiment
# HTR1D: 5-hydroxytryptamine receptor 1D (HTR1D, Homo sapiens, UniProt P28221)
# Chain of UniProt P28221 (whole entry, looked up): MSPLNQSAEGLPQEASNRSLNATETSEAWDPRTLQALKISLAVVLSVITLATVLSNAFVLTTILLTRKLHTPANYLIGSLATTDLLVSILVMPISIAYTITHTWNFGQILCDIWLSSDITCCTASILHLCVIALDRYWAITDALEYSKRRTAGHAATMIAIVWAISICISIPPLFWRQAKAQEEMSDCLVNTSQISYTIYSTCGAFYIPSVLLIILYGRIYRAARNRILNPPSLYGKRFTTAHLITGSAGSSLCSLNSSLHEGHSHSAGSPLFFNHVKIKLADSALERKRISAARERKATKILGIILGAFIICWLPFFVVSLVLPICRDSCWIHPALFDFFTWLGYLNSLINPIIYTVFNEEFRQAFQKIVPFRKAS
Structure (SMILES),tested on,assay,test system,setting,how to read,quantity,result
Cc1c(N2CCNCC2)nc2ccc(Br)cc2c1C(=O)NC[C@H](CCC(=O)O)c1ccccc1Cl,HTR1D,cell-free assay,,10 µM,,inhibition,9.12%
O=C(COc1ccccc1P(=O)(O)O)NCC(F)(F)c1ccc(F)c(F)c1,human islet β-cells,β-cell death,human,"10 µM, 24 h, added: 20 mM glucose + 500 µM palmitate",relative to: GFP+ cells,dead β-cells,6% and 8.31% and 7.27% and 17.2%
CCCCN(CCCC)C(=O)CN1C[C@H](c2cc(OC)c3c(c2)OCO3)[C@@H](C(=O)O)[C@@H]1CC(C)(C)CCC,"Calcium-dependent protein kinase 1 (CDPK1, Plasmodium falciparum, UniProt P62344)","cell-free assay, competition with immobilised ligand",,1 µM,,remaining binding,82%
O=C(COc1ccccc1P(=O)(O)O)NCC(F)(F)c1cccc(F)c1,human islet β-cells,β-cell death,human,"10 µM, 24 h, added: 20 mM glucose + 500 µM palmitate",relative to: GFP+ cells,dead β-cells,11.8% and 5.78% and 4.07% and 11.5%
N#CC1(c2ccccn2)CCN(Cc2cc(C(=O)O)c(=O)n3ccccc23)CC1,HTR1D,cell-free assay,,10 µM,,inhibition,-4.55%
FC(F)(F)c1ccc2c(c1)nc(-c1cccnc1)n2C1CC1,"Cyclin-dependent kinase 2 homolog (CRK2, Plasmodium falciparum, UniProt P61075)","cell-free assay, competition with immobilised ligand",,1 µM,,remaining binding,100%

# A few entries again (set 3):
Compound,GFP-positive cells
C[C@@H](O)[C@@H]1NC(=O)[C@H](CCCCN)NC(=O)[C@@H](Cc2c[nH]c3ccccc23)NC(=O)[C@H](Cc2ccccc2)NC(=O)[C@@H](NC(=O)[C@H](N)Cc2ccccc2)CSSC[C@@H](C(=O)N[C@H](CO)[C@@H](C)O)NC1=O,106%
COCCc1ccc(OCC(O)CNC(C)C)cc1.COCCc1ccc(OCC(O)CNC(C)C)cc1.O=C(O)CCC(=O)O (stereo not drawn),96%
CN(C)C/C=C/C(=O)Nc1cc2c(Nc3ccc(F)c(Cl)c3)ncnc2cc1O[C@H]1CCOC1.O=C(O)/C=C\C(=O)O.O=C(O)/C=C\C(=O)O,106%
O=C(/C=C/c1cccc(S(=O)(=O)Nc2ccccc2)c1)NO,89.6%
C=CC(=O)N1CCC[C@@H](n2nc(-c3ccc(Oc4ccccc4)cc3)c3c(N)ncnc32)C1,116%
